Published values collected from several papers.
Each line is one published result; not all experiments were run side by side. Several values in a cell are separate wells, animals, samples, runs or records.
Target: Activated CDC42 kinase 1 (TNK2, Homo sapiens, UniProt Q07912)

For `Cc1ccc(C(=O)Nc2ccc(CN3CCN(C)CC3)c(C(F)(F)F)c2)cc1C#Cc1cnc2cccnn12`, the upper asymptote was 80.4 (target engagement, NanoBRET; human cells).
For `O=C(Nc1ccc(Oc2ncnc3[nH]cc(-c4ccccc4)c23)c(F)c1)c1c2n(n(-c3cc(F)ccc3F)c1=O)CCCC2`, the inhibition was 8% (enzyme activity, inhibitor; 0.5 µM).
For `CC(C)=CC1OC(C)(C)C2C=C3C(=O)C(Cl)=CC(O)C3C3C(O)C4OC4C(=O)C132` (stereo not shown), the remaining binding was 70% (cell-free assay, competition with immobilised ligand; 10 µM).
`C=CC(=O)Nc1cccc(-c2cnc3[nH]cc(C(=O)NC(C)(C)C)c3n2)c1` has an inhibition of 3% (enzyme activity, inhibitor; 0.1 µM).
`CNC(=O)C[C@H](Cc1ccc(C#N)cc1)NC(=O)c1cc(-c2ccc(CN[C@H](C)c3ccc(C)cc3)o2)ccc1Cl`: “activity vs control” 106% (enzyme activity, inhibitor; 1 µM).
For `COc1cc(Nc2nc(C)cc(-c3cnn4nc(OC)ccc34)n2)cc(C(F)(F)F)c1`, the remaining binding was 77% (binding, competition with immobilised ligand; 1 µM).
Under “log2 LFQ intensity”, `N[C@H]1CC[C@H](Nc2nccc(-c3cccnc3Oc3ccc(NC(=O)NC4CC4)c4ccccc34)n2)CC1` is recorded as 24.3 and 24.1 and 23.9 (kinobead competition pulldown; HEK293/HCT116 lysate mixture; 10 µM, 1 h, 4 °C; lower = stronger competition).
The remaining activity of `COCC12C(=O)NC3C4(C(OC)CC1O)C1CC5(O)C(OC)C(O)C(OC(C)=O)(C1C5OC(=O)c1ccccc1)C3(O)C(OC)C24` (stereo not shown) is reported as 117% and 119% (kinase activity, inhibitor, ProQinase kinase profiling; 25 µM; baseline: control).
The remaining binding of `CNC(=O)C1CCN(c2cc(C)c(F)cc2NC(=O)c2ccc(-c3cc(O)ccc3C)c(C)c2)CC1` is reported as 41% (binding, competition with immobilised ligand; 1 µM).
The inhibition of `NC(=O)[C@@H](O)C[C@H]1CCc2sc3ncnc(O[C@H]4CC[C@H](N5CCOCC5)CC4)c3c21` is reported as 38% (enzyme activity, inhibitor; 10 µM).
The inhibition of `CN1CCN(c2ccc(Nc3ncc(Cl)c(Nc4ccccc4P(C)(C)=O)n3)cc2Br)CC1` is reported as 98% (enzyme activity, inhibitor; 0.1 µM).
For `Nc1ncc(-c2cc(-c3cnn(CC(F)(F)F)c3)ncc2F)nc1C(=O)NC1CNCC(F)C1` (stereo not shown), the remaining activity was 90% (enzyme activity; 1 µM; baseline: DMSO control).
`C=C1C[C@]2(C(=O)OC)C=C(C(=O)Nc3cccc(C(=O)Nc4ccc(Nc5nccc(-c6cccnc6)n5)c(C)c4)c3)C(=O)[C@H]1C2` gave a remaining binding of 94% (binding, competition with immobilised ligand; 1 µM).
`Cc1cccc(O[C@H]2CCC[C@@H](C(C)CNCc3ccncc3)C2)c1` (relative stereo) has an inhibition of 2% (enzyme activity, inhibitor; 1 µM).
`O=C=[N][Ru-4]123([n]4c5ccc(O)cc5c5c6c(c7cc(F)c[n+]1c7c54)C(=O)NC6=O)[S+]1CC[S+]2CC[S+]3CC1` (stereo not shown) gave a remaining activity of 96% (enzyme activity; 100 nM, human enzyme, with: 10 µM ATP; baseline: untreated).
`CN1CC[C@@H](COc2cnc(C#N)cc2-c2ccn3nc(NC(=O)C4CC4)cc3c2)C1` has an inhibition of 63% (enzyme activity, inhibitor; 1 µM).
`C=CC(=O)N1Cc2nc(-c3cc(-c4cc(Cl)cnc4Cl)c(F)cc3F)n(-c3ccncn3)c2C1` gave an inhibition of 0.7% (cell-free assay, inhibitor; 1 µM).
With `CCN1CCN(Cc2ccc(NC(=O)c3ccc(C)c(NC(=O)c4cncc(-c5cccs5)c4)c3)cc2C(F)(F)F)CC1` the remaining binding was 30% (binding, competition with immobilised ligand; 1 µM).
`CCN1CCN(Cc2ccc(C(=O)Nc3ccc(C)c(NCc4cnc5[nH]ccc5c4OC)c3)cc2C(F)(F)F)CC1` gave a remaining binding of 4.8% (binding, competition with immobilised ligand; 1 µM).

Some of these lines once more:
For `Cc1ccc(C(=O)Nc2ccc(CN3CCN(C)CC3)c(C(F)(F)F)c2)cc1C#Cc1cnc2cccnn12`, the upper asymptote was 80.4 (target engagement, NanoBRET; human cells).
For `O=C(Nc1ccc(Oc2ncnc3[nH]cc(-c4ccccc4)c23)c(F)c1)c1c2n(n(-c3cc(F)ccc3F)c1=O)CCCC2`, the inhibition was 8% (enzyme activity, inhibitor; 0.5 µM).
